Experimental data collected from several papers.
Numbered parts are unrelated; each lists some results of a single study. Changes are numbered by the printed parent chain.
Chain of UniProt P38919 (whole entry, looked up): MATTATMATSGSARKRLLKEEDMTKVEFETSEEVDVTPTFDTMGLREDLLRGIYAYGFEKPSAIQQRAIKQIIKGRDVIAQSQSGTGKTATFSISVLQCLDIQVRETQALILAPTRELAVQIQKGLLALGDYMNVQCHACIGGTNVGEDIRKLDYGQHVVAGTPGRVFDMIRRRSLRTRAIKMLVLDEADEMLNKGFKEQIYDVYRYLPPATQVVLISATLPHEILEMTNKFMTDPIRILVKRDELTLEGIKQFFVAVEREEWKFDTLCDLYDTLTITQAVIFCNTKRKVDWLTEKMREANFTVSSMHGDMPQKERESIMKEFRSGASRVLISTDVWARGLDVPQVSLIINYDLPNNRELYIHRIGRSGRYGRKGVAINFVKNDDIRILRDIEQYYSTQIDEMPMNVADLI

Sample 1 — target: inorganic phosphate, free oxyanion; method: microfluidic competitive inhibition; medium: in vitro, cell-free expressed; tested at: not given; direction: lower = stronger binding; quantity: phosphate dissociation constant
Notes: derived from inhibition constants, unchanged parent 615000 nM
Starting sequence: PafA, mature enzyme, eGFP fusion (Elizabethkingia meningoseptica, UniProt Q9KJX5); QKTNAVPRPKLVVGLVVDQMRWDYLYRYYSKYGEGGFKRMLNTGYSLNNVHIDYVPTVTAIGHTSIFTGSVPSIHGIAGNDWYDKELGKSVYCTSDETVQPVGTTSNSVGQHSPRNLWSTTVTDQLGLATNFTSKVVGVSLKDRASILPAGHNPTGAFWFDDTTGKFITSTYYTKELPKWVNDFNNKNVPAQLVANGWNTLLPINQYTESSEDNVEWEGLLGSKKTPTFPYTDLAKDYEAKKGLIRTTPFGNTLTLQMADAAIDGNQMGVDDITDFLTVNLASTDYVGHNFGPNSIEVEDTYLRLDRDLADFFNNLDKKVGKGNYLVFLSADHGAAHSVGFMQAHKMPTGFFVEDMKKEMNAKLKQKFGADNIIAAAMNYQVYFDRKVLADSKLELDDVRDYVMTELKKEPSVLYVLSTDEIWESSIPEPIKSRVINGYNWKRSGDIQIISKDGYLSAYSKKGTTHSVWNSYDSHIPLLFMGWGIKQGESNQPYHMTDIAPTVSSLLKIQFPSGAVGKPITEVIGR
Change = V320G; value = 749 µM
Change = I436G; value = 349 µM
Change = G484V; value = 640 µM
Change = G62A; value = 20.8 µM
Change = V388G; value = 660 µM
Change = Y402G; value = 594 µM
Change = D355G; value = 486 µM
Change = E410G; value = 782 µM

Sample 2 — target: CCNB2, cyclin fold, Cln2 fusion (human); method: yeast growth competition, sequencing; medium: yeast; notes: weak parent motif; baseline: not given; direction: higher = stronger binding; quantity: normalised enrichment score
Starting sequence: viral docking peptide; KGVKRKLFAEDSS; partner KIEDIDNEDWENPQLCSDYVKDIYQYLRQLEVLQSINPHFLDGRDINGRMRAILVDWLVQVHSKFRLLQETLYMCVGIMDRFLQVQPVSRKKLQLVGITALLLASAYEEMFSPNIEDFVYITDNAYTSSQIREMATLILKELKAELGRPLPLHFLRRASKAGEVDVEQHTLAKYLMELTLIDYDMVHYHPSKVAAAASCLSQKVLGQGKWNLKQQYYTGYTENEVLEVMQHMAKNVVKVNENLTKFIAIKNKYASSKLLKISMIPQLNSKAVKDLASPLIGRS
Change = K4R; value = 1.49
Change = D11V; value = 0.454
Change = D11C; value = 0.682
Change = K6D; value = -0.235
Change = K6V; value = 0.66
Change = F8A; value = 0.275
Change = F8V; value = 0.62
Change = L7K; value = 0.76

Sample 3 — effect on: binding; method: phage display NGS; molecule type: peptide; notes: panning round 2; baseline: input library; quantity: minimum log2 enrichment ratio
Target: UDP-N-acetylglucosamine--peptide N-acetylglucosaminyltransferase 110 kDa subunit (OGT, Homo sapiens, UniProt O15294)
Chain of UniProt O15294 (whole entry, looked up): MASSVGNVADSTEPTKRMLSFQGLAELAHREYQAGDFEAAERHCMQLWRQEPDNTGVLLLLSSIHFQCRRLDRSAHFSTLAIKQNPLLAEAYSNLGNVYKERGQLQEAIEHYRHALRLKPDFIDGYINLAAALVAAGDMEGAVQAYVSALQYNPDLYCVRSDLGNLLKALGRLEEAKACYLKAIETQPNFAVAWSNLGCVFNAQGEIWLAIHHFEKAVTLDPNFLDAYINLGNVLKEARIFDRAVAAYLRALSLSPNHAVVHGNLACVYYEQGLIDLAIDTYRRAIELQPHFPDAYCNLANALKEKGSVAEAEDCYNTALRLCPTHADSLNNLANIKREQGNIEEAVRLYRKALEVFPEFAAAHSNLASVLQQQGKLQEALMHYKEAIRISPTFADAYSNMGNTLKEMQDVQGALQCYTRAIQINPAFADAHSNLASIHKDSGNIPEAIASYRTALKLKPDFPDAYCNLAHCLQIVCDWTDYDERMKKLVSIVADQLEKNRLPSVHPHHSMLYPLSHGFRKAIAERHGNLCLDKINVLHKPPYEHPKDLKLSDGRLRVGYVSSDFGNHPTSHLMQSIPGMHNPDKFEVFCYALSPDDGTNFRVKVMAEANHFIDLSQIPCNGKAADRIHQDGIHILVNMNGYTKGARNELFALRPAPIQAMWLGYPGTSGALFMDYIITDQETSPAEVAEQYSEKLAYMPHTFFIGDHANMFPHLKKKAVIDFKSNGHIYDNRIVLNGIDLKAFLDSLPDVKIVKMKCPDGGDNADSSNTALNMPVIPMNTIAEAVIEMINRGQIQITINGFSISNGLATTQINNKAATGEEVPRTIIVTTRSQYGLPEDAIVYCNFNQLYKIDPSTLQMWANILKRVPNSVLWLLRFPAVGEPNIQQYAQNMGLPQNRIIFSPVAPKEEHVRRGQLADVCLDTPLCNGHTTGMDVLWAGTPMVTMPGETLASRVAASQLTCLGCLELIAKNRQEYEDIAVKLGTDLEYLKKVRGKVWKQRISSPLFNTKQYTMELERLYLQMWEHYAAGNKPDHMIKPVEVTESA
Molecule = GGNEEFKPFYQIFMP; value = 2.41
Molecule = HVPEGHHYLGHVHFL; value = 2.16
Molecule = SFVVPRYQIIYKPFQ; value = 2.48
Molecule = SYRPMYQIVQPIKQY; value = 1.83
Molecule = SPHMNNHHHAVMGEH; value = 2.99
Molecule = TTHYLPVYQIELKNA; value = 3.32
Molecule = HMFTNQHHFRPMHQA; value = 3.43
Molecule = AFSPQYQIFVGQTYM; value = 2.04

Single results of other studies
Compound = COC(=O)[C@@H]1[C@@H](c2ccccc2)[C@]2(c3ccc(OC)cc3)Oc3cc(OC)cc(OC)c3[C@@]1(O)[C@H]2O; target = Eukaryotic initiation factor 4A-III (Homo sapiens, UniProt P38919); effect on = RNA clamping; method = fluorescence polarization; tested at = concentration not given; with = FAM-labelled poly r(AG)8 RNA; quantity = fluorescence polarization change; value = -3.1 mP

Some of these lines once more (sample 1):
Change = I436G; value = 349 µM
Change = G484V; value = 640 µM
Change = G62A; value = 20.8 µM
Change = V388G; value = 660 µM
